Assay results of several laboratories.
Each numbered part is a random draw from the data of one study; scales do not carry over between parts. Values joined by “and” are separate records of one study, mostly repeats; a detail may differ.
UniProt Q8RYC6, sequence (whole entry, looked up): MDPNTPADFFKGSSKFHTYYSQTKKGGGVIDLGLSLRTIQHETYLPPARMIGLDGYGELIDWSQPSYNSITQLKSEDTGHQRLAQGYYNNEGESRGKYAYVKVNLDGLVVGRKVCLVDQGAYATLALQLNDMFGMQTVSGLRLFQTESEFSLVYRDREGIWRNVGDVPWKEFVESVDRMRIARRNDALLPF
UniProt Q16566, sequence (whole entry, looked up): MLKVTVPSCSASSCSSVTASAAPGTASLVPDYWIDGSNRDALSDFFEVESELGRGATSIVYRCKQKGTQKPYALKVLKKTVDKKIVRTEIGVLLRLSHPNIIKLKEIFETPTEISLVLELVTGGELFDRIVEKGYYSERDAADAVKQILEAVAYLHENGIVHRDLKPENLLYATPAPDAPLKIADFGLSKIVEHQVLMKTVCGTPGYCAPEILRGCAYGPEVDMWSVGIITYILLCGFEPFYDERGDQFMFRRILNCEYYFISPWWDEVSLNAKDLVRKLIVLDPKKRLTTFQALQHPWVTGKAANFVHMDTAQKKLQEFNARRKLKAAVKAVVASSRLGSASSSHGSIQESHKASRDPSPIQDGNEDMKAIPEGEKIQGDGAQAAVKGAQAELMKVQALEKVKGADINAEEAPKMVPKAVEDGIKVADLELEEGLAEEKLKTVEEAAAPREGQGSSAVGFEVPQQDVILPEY
UniProt Q93WC4, sequence (whole entry, looked up): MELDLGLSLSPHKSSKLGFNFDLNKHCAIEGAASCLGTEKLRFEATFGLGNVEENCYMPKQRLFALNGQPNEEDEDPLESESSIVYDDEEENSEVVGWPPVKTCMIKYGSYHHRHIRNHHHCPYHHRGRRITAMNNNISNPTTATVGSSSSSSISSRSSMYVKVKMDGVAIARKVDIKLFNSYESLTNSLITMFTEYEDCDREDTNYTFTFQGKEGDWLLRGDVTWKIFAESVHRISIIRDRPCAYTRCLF
UniProt Q9ZSY8, sequence (whole entry, looked up): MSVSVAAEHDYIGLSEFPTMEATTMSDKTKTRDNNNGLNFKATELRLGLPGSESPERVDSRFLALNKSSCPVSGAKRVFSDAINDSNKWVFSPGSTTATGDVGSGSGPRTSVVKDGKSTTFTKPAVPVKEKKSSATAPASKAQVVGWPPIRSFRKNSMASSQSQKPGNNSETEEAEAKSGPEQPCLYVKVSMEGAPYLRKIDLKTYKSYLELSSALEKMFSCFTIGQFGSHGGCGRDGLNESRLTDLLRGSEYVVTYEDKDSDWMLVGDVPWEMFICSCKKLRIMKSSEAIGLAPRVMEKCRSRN
UniProt Q8NEV4, sequence (whole entry, looked up): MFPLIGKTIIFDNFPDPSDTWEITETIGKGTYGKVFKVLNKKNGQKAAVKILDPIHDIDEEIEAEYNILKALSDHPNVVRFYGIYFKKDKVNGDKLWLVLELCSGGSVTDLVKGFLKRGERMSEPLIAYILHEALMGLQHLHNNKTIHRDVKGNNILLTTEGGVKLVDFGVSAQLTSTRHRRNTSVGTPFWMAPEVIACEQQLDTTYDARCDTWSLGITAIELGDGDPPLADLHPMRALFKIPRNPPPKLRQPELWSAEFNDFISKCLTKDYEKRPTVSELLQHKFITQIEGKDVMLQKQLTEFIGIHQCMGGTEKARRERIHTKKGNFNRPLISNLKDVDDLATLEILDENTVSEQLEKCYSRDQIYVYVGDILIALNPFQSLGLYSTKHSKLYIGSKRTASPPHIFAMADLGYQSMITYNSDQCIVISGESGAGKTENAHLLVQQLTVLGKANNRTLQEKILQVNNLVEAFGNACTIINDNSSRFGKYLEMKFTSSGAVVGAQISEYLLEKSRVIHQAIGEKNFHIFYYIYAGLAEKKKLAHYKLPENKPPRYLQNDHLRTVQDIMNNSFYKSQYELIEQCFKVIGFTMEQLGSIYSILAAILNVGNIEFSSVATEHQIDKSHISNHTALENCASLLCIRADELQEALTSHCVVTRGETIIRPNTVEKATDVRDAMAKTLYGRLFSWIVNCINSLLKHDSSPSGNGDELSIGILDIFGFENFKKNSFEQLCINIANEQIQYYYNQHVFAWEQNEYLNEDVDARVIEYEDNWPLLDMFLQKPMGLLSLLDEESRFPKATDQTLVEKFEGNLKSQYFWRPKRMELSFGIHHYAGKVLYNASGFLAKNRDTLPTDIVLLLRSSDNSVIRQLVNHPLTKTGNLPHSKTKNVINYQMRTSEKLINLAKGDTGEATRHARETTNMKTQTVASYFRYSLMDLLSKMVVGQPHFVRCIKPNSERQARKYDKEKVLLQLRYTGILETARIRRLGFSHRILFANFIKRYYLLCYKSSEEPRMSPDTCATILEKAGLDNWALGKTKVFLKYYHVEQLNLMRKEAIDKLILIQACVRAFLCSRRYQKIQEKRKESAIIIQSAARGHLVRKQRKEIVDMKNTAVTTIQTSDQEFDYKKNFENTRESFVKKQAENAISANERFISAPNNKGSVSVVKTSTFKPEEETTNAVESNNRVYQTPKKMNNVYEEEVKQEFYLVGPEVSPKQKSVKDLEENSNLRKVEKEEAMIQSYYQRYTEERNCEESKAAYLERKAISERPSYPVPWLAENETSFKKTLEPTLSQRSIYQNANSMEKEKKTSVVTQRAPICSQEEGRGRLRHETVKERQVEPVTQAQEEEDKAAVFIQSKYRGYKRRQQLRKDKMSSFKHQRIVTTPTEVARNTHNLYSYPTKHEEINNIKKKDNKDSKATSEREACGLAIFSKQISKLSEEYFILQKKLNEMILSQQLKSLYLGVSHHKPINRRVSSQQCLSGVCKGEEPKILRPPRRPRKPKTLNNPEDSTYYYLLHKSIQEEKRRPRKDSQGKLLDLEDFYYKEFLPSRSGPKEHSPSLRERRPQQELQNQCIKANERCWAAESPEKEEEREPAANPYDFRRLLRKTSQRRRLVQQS
UniProt Q9XID4, sequence (whole entry, looked up): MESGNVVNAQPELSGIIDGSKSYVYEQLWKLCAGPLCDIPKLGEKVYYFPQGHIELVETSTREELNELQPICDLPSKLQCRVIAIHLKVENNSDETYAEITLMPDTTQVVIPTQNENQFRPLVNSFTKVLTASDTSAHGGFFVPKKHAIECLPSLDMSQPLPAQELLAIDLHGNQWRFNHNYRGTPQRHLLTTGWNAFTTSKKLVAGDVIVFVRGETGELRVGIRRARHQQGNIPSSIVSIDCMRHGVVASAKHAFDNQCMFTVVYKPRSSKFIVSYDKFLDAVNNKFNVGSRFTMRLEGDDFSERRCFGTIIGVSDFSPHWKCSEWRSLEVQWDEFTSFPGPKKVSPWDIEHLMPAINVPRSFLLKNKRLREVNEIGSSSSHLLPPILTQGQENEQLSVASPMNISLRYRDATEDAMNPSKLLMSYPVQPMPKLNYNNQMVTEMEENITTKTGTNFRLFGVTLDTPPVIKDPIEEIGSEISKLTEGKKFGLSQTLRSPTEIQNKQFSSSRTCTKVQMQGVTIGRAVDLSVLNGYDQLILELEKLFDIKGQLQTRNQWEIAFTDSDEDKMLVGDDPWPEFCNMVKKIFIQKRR
UniProt Q38831, sequence (whole entry, looked up): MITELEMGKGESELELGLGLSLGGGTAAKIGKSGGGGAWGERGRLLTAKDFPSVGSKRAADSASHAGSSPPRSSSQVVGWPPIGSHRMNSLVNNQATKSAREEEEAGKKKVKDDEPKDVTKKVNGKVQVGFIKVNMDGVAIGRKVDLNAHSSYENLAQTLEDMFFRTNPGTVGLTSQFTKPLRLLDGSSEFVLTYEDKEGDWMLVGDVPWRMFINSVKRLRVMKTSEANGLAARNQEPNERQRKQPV

Series 1
SMILES: CC(=O)C1=C(C)N(c2cccc(C(F)(F)F)c2)C(=O)N[C@@H]1c1ccc(C#N)nc1
Technique: competition with immobilised ligand
Concentration: 1 µM
For CDK2 (Homo sapiens, UniProt P24941); cell-free assay: remaining binding read 100%.
CAMK4 (Homo sapiens, UniProt Q16566); cell-free assay — remaining binding: 54.3%.
FGR (Homo sapiens, UniProt P09769); cell-free assay — remaining binding: 86.7%.
CDK18 (Homo sapiens, UniProt Q07002); cell-free assay — remaining binding: 85.1%.
For Myosin-IIIa (MYO3A, Homo sapiens, UniProt Q8NEV4); binding: remaining binding read 85.1%.
It gave 99.7% for remaining binding (TNNI3K (Homo sapiens, UniProt Q59H18); cell-free assay).

Series 2
Host: human
Matrix: microsomes or S9
Concentration: 2 µM
Time: 0.5 h
For `CN(C)c1nc(N)nc(CNc2nccc(C3CCCC3)n2)n1`, the remaining compound was 1.57%.
The remaining compound of `Nc1cc(-c2ccc(Br)cc2)nn1CC1CCCCC1` is reported as 23.8%.
`CC(C)Oc1cccc(/C=C(/F)Oc2ccc(OC[C@@H]3C[C@@](Cn4cncn4)(c4ccc(Cl)cc4Cl)N(C)O3)cc2)c1` gave a remaining compound of 11.4%.
The remaining compound of `Cc1cc(NC(=O)c2cc(C(=O)Nc3cc(C)n(C(C)C)n3)n(C)n2)nn1C(C)C` is reported as greater than 100%.
For `O=c1ccc(-c2noc(Cc3c(F)cccc3Cl)n2)c[nH]1`, the remaining compound was 71.3%.
`Cc1ccccc1C(C)NS(=O)(=O)c1ccc(Cl)c(-c2nnn[nH]2)c1` (centres unmarked) gave a remaining compound of greater than 100%.

Series 3
Molecule: B1 (IAA2)
Technique: two-hybrid
Baseline: out of 4 tests
Direction: higher = firmer interaction
B1: IAA2 (Arabidopsis thaliana, UniProt P49678); chain MAYEKVNELNLKDTELCLGLPGRTEKIKEEQEVSCVKSNNKRLFEETRDEEESTPPTKTQIVGWPPVRSSRKNNNSVSYVKVSMDGAPYLRKIDLKTYKNYPELLKALENMFKVMIGEYCEREGYKGSGFVPTYEDKDGDWMLVGDVPWDMFSSSCKRLRIMKGSDAPALDSSL
The positive tests was 0 (IAA13 (Arabidopsis thaliana, UniProt Q38831)).
For IAA27 (Arabidopsis thaliana, UniProt Q9ZSY8): positive tests read 4.
It gave 0 for positive tests (IAA32 (Arabidopsis thaliana, UniProt Q8RYC6)).
For IAA29 (Arabidopsis thaliana, UniProt Q93WC4): positive tests read 0.
It gave 0 for positive tests (ARF12 500-593 (Arabidopsis thaliana, UniProt Q9XID4)).
IAA9 (Arabidopsis thaliana, UniProt Q38827) — positive tests: 4.

Series 4
Target: Rho-associated protein kinase 1 (ROCK1, Homo sapiens, UniProt Q13464)
UniProt Q13464, sequence (whole entry, looked up): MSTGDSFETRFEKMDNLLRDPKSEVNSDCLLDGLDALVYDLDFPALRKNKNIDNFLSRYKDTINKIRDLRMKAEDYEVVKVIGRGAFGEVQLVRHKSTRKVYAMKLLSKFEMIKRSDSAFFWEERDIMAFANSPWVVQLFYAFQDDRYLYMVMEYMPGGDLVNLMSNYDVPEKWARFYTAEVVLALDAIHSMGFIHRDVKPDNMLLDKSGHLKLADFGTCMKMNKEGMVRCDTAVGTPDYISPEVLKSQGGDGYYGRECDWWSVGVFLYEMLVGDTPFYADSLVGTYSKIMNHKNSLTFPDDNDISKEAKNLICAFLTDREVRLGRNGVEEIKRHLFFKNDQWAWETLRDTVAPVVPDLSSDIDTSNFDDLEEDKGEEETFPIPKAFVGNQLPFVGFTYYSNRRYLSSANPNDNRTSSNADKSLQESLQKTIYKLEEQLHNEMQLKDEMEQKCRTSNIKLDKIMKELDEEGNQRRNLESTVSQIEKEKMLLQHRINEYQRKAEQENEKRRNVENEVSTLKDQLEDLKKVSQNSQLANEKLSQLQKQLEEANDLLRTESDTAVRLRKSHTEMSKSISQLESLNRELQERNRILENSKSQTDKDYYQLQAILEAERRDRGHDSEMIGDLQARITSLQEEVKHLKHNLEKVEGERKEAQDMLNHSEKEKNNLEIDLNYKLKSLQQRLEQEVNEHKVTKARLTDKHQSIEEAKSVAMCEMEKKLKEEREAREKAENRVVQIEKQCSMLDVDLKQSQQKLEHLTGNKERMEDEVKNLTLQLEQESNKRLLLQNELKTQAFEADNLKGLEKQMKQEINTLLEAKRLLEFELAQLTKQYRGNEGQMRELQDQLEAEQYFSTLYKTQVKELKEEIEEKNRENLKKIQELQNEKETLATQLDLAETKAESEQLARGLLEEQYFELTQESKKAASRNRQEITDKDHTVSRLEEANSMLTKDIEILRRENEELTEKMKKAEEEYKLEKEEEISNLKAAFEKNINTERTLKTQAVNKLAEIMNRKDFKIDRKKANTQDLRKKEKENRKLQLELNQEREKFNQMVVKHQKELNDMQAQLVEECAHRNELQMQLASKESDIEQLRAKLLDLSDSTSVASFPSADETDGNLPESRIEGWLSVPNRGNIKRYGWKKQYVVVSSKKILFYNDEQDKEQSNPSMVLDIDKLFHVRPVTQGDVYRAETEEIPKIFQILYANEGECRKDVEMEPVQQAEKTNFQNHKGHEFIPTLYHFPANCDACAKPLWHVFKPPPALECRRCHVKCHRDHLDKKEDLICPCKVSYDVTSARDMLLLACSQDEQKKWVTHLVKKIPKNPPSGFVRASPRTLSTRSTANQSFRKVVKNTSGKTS
Effect on: enzyme activity
Action: inhibitor
Concentration: 0.5 µM
Baseline: control
`CNC(=O)c1cc(Oc2ccc(NC(=O)Nc3ccc(Cl)c(C(F)(F)F)c3)cc2)ccn1` has a remaining activity of 102%.
`Cc1ccc(NC(=O)c2ccc(CN3CCN(C)CC3)cc2)cc1Nc1nc(-c2cccnc2)cs1` has a remaining activity of 102%.
For `Cn1sc(=O)n(Cc2ccccc2)c1=O`, the remaining activity was 94.6%.
The remaining activity of `Nc1ncnc2n[nH]c(Nc3ccc(F)cc3)c12` is reported as 100%.
With `N#CC(C#N)=C(N)/C(C#N)=C/c1ccc(O)cc1` the remaining activity was 100%.
`COc1ccc(CNC(=O)Nc2ncc([N+](=O)[O-])s2)cc1` has a remaining activity of 102%.
`CCOC(=O)c1c(C)[nH]c(/C=C2\C(=O)Nc3ccccc32)c1C` has a remaining activity of 99.1%.
With `Cc1nc(-c2ccccc2)c(-c2ccncc2)o1` the remaining activity was 99.8%.
With `C#Cc1cccc(Nc2ncnc3cc(OCCOC)c(OCCOC)cc23)c1` the remaining activity was 107%.
`Nc1[nH]nc2nc3ccccc3nc12` has a remaining activity of 99%.
The remaining activity of `Cn1c2ccccc2c2c3c(c4c5ccccc5n(CCC#N)c4c21)CNC3=O` is reported as 61.9%.
With `CO[C@H]1C[C@@H]2CC[C@@H](C)[C@@](O)(O2)C(=O)C(=O)N2CCCC[C@H]2C(=O)O[C@H]([C@H](C)C[C@@H]2CC[C@@H](O)[C@H](OC)C2)CC(=O)[C@H](C)/C=C(\C)[C@@H](O)[C@@H](OC)C(=O)[C@H](C)C[C@H](C)/C=C/C=C/C=C/1C` the remaining activity was 103%.
`CC(C)[C@H](CO)Nc1nc(Nc2cc(N)cc(Cl)c2)c2ncn(C(C)C)c2n1` has a remaining activity of 90%.
`O=C(Nc1cccc(Nc2cc(Nc3cccc(C(F)(F)F)c3)ncn2)c1)C1CC1` has a remaining activity of 98.7%.
`COc1cc2ncnc(Nc3ccc(Oc4ccccc4)cc3)c2cc1OC` gave a remaining activity of 102%.

Mixed results
For `c1ccc(Oc2ccc(Nc3c4c(nc5ccccc35)CCC4)cc2)cc1`, the inhibition was 0% (Leishmania donovani; parasite killing; DD8, intracellular amastigotes; 0.004 µM, 24 h).
`c1ccc2c(-c3nn4c(-c5ccncc5)nnc4s3)c[nH]c2c1`: “lysosomal acid lipase activity” 158% and 172% and 167% and 201% (healthy dermal fibroblasts; 4-MUP hydrolysis; 0.5 µM, together with: without ISRIB; baseline: DMSO without ISRIB).

Some of these lines once more (mixed results):
For `c1ccc(Oc2ccc(Nc3c4c(nc5ccccc35)CCC4)cc2)cc1`, the inhibition was 0% (Leishmania donovani; parasite killing; DD8, intracellular amastigotes; 0.004 µM, 24 h).
`c1ccc2c(-c3nn4c(-c5ccncc5)nnc4s3)c[nH]c2c1`: “lysosomal acid lipase activity” 158% and 172% and 167% and 201% (healthy dermal fibroblasts; 4-MUP hydrolysis; 0.5 µM, together with: without ISRIB; baseline: DMSO without ISRIB).
